Measured values from different studies.
Numbered parts are unrelated; each lists some results of a single study. “And” joins repeats or separate records; there may be more than shown.
Chain of UniProt Q96SW2 (whole entry, looked up): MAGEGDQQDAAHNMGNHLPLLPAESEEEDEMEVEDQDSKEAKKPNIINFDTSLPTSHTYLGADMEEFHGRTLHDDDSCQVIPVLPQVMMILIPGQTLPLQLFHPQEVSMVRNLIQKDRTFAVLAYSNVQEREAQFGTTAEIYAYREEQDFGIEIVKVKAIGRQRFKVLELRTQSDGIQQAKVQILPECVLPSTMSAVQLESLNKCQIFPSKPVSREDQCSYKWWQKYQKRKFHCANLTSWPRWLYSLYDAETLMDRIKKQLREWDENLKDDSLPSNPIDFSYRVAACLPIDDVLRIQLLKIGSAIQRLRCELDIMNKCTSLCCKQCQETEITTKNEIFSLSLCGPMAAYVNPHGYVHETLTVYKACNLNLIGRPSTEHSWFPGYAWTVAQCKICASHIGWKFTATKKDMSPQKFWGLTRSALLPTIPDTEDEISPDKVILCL
Chain of UniProt P31645 (whole entry, looked up): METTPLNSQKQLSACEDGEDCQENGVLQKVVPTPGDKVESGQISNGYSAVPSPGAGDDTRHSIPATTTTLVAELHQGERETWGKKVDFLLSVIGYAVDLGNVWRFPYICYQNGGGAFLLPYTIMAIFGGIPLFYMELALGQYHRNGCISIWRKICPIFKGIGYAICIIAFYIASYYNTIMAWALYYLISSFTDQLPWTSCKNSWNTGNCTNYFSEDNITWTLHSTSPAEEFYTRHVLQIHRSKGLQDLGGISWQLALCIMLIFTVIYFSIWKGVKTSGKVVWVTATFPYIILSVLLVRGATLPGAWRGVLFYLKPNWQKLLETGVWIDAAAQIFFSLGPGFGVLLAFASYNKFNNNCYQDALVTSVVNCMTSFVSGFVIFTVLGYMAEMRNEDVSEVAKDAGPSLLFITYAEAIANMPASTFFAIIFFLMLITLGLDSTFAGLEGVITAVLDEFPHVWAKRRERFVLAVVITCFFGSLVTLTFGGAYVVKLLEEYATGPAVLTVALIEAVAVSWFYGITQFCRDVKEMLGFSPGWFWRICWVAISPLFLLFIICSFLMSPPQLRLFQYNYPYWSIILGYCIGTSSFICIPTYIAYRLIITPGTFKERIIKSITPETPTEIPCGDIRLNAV
Chain of UniProt P23975 (whole entry, looked up): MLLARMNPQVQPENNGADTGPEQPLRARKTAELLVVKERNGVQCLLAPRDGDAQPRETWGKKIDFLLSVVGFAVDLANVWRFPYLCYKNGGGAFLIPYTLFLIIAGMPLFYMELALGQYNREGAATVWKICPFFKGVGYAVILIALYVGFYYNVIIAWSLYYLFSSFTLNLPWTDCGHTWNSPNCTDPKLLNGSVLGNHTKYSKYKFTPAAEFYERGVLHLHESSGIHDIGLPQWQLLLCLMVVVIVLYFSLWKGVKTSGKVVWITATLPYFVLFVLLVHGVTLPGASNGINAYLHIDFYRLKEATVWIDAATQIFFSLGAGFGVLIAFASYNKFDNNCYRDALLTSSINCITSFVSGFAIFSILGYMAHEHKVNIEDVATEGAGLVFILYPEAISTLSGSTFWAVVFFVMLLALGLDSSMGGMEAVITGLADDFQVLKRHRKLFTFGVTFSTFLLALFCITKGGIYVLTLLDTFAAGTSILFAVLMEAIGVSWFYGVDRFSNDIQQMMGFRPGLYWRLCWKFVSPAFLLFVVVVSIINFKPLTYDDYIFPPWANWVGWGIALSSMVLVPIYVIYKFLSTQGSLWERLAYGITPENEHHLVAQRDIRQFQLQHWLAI
Chain of UniProt P21918 (whole entry, looked up): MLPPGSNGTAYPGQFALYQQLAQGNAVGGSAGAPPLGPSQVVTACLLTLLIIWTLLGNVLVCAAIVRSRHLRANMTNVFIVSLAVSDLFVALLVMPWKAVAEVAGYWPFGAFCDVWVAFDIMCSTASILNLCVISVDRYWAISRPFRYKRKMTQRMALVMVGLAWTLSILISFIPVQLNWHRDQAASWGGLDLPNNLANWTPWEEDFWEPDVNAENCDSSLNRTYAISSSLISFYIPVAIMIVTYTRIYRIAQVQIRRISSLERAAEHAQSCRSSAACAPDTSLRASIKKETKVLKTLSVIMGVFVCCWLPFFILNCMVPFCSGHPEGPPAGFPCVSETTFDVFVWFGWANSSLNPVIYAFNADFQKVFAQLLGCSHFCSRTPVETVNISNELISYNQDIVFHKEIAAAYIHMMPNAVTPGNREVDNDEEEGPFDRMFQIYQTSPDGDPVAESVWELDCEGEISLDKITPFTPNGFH

Series 1
SMILES: O=C1CCC(N2Cc3c(ccc4c3OCC43CCN(Cc4ccccc4)CC3)C2=O)C(=O)N1 (stereo not shown)
KCNH2: Voltage-gated inwardly rectifying potassium channel KCNH2 (KCNH2, Homo sapiens, UniProt Q12809)
Chain of UniProt Q12809 (whole entry, looked up): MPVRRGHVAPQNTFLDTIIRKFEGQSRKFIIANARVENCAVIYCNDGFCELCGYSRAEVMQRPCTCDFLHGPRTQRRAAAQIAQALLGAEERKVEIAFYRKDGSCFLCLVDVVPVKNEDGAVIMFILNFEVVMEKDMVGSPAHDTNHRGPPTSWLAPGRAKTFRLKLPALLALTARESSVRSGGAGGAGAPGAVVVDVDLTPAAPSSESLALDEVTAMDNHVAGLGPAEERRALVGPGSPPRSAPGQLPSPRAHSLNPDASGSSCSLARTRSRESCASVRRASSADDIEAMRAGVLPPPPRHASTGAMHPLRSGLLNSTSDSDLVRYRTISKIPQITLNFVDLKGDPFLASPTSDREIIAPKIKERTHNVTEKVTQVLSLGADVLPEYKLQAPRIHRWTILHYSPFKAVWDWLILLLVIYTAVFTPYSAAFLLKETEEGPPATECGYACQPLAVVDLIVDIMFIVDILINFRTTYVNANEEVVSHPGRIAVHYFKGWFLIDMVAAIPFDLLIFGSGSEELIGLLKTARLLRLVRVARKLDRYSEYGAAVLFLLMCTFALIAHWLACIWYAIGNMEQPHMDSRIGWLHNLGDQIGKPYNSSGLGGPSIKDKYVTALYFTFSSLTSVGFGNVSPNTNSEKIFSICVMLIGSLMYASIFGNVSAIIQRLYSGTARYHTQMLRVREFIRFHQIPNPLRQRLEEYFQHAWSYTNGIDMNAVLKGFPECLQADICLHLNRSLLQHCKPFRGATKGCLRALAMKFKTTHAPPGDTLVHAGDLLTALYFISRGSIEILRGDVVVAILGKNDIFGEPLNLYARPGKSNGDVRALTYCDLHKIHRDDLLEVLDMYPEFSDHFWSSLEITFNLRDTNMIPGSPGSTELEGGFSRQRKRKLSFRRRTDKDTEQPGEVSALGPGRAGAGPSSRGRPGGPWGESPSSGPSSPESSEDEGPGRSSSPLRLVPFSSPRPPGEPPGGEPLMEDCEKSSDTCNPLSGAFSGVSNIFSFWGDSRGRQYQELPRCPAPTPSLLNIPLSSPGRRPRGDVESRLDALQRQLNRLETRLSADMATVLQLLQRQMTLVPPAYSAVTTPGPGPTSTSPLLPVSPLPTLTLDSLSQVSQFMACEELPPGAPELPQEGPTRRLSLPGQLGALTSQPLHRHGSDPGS
| target | read-out | technique | cells | concentration | inhibition |
| --- | --- | --- | --- | --- | --- |
| Protein cereblon (CRBN, Homo sapiens, UniProt Q96SW2) | cell-free assay | TR-FRET |  | 1.52 µM | 0.7% and 2.6% |
| KCNH2 | hERG current | voltage clamp | HEK293 stably expressing hERG | 1 µM | 84.1% and 91.3% and 85.6% |
| KCNH2 | hERG current | voltage clamp | HEK293 stably expressing hERG | 0.1 µM | 76.8% and 83.7% and 76% |

Series 2 — organism: Sarcocystis neurona; read-out: parasite growth; concentration: 10 µM; time: 96 h; notes: first screen
| SMILES | inhibition [%] |
| --- | --- |
| c1ccc(Cn2ccnc2)cc1 | -0.173 |
| C[C@H]1CCC[C@H](O)CCCCCc2cc(O)cc(O)c2C(=O)O1 | 32.7 |
| NC(=O)OCCCc1ccccc1 | -29.5 |

Series 3 — read-out: ligand displacement; concentration: 10 µM
SMILES: O=C(O)[C@H]1[C@H](Cn2nnc3ccccc3c2=O)CC[C@@H]1C(=O)c1ccc(OCCC2CCOCC2)cc1
| target | inhibition |
| --- | --- |
| Sodium-dependent noradrenaline transporter (SLC6A2, Homo sapiens, UniProt P23975) | -4.82% |
| Sodium-dependent serotonin transporter (SLC6A4, Homo sapiens, UniProt P31645) | 13.9% |
| D(1B) dopamine receptor (DRD5, Homo sapiens, UniProt P21918) | 7.53% |

Mixed results
| SMILES | species | route | dose | notes | quantity | value |
| --- | --- | --- | --- | --- | --- | --- |
| COc1ccc(-c2c(Nc3ccccn3)[nH]c3c(C4=CCCCC4)c(-c4ccccc4)nn3c2=O)cc1 | patients with advanced malignancies | oral | dose not given | treatment-emergent adverse events | decreased appetite incidence | 20% |

Excerpt of the above (series 2):
| SMILES | inhibition [%] |
| --- | --- |
| C[C@H]1CCC[C@H](O)CCCCCc2cc(O)cc(O)c2C(=O)O1 | 32.7 |
